Results from different studies.
Parts stem from different laboratories: compare values within a part only. Positions count from the first letter of the parent shown.

Block 1 — technique: RNA Bind-n-Seq; molecule type: RNA; medium: in vitro; tested at: 365 nM; reference: no-protein control; reading: higher = stronger binding
Target: RNA binding protein fox-1 homolog 2, RRM domain, GST-SBP tag (RBFOX2, Homo sapiens, UniProt O43251-10, residues 100-194)
Notes: natural RNA segment, single round, ends assumed
Target sequence (chain): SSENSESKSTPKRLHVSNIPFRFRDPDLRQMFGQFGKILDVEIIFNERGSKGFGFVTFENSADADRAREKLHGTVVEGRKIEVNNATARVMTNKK
`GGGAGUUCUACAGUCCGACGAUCCCCUCUCUAUUACCACAUUUUCUCUUAUUAACAGUAUCUCAGAAUAAUUUUCUUUCCUUAGAAACCUGAGAGAAUGCUAGUCAUAACUGUACUAGUUACUAUGAAAAUGGUGGAAUUCUCGGGUGCCAA` — result for “RBNS enrichment (R)”: 0.44.
For `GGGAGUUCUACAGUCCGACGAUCGUAUUGGGUGAGGGGCUUUCUCCCUUUACCUGCCUCUUCUUGCUUGCUAAUAGUAAGUUCUUUGUGCACCUUCCACCACUUCUGAGCCACUACUAUUCAAGUAGAGAUUUUGGAAUUCUCGGGUGCCAA`, “RBNS enrichment (R)” read 0.287.
Under “RBNS enrichment (R)”, `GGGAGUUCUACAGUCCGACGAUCUGCUGUAUUUAUGUGCUUCAUAAGGCCCUGCUCUGUCUGCUAAAGCUAUGAAGAAAGAUGUGCAGAGACUGGGGUGGAGACUAAGCCAAAGAGGAGCUGCCUAGCCUGGCUGGAAUUCUCGGGUGCCAA` is recorded as 0.621.
Under “RBNS enrichment (R)”, `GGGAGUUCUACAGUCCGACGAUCCUCCUGAGGUGCAUUUUCUCAUCAUCCUUGCUUUACCACAAUGAGCAAUGAGGUCGGGUUUUAUAUGCAACUUAUUGUAUCUGAAUUCCUGUAGCACACCUCAUAGGUAUUGGAAUUCUCGGGUGCCAA` is recorded as 0.272.
Under “RBNS enrichment (R)”, `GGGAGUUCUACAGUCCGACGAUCACUUUUGAGGCACUUUUCAAAUUUAAUAAGGAACCAUGUAAGGGUAGCAGCCCCUCCCUAAAGCAUUCUGAGGUAAGGAGGUAUCCAUUCUUCAAAUGAAUGUGAGUGAAUGGAAUUCUCGGGUGCCAA` is recorded as 5.11.
For `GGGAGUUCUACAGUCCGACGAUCCUGCGAAGUUUAAUGAUCCACAAGUGUAUAUAUGAAAUUCUCCUCCUUCCUUGCCCCCCUCUCUUUCUUCCCUCUUUCCCCUCCAGACAUUCUAGUUUGUGGAGGGUUAUUGGAAUUCUCGGGUGCCAA`, “RBNS enrichment (R)” read 0.836.
`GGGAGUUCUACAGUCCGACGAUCGUCCUGCAUUUUAUUGACUGGGGUUUGAUCUCAGCUUCUGAAAAUGUUUAAAAAUUGGAAGGAAAUACUACUCAUAUCUUCAUUGUCACUUUGUCUUACCUCAAUUGAGUUGGAAUUCUCGGGUGCCAA` — result for “RBNS enrichment (R)”: 0.548.
`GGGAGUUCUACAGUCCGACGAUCUCUGCACUUUGCCCCCUGUCUCAAAAAUGUCCCUCAUGUCCAUUUCCUGUCCAGGAGACUCAUGAGGACUGUGUGACCUGCACAAGCCCACACCUGGGCAGGCUGUUGGUUGGAAUUCUCGGGUGCCAA`: “RBNS enrichment (R)” 0.256.

Block 2 — technique: RNA Bind-n-Seq; molecule type: RNA; medium: in vitro; tested at: not given; reference: input RNA pool; reading: higher = stronger binding
Target: RING finger protein unkempt homolog, zinc fingers 1-6, GST-SBP tag (UNK, Homo sapiens, UniProt Q9C0B0, residues 30-357)
Notes: RNA with constant flanks, human-mouse chimeric sites, ends assumed
Construct (chain): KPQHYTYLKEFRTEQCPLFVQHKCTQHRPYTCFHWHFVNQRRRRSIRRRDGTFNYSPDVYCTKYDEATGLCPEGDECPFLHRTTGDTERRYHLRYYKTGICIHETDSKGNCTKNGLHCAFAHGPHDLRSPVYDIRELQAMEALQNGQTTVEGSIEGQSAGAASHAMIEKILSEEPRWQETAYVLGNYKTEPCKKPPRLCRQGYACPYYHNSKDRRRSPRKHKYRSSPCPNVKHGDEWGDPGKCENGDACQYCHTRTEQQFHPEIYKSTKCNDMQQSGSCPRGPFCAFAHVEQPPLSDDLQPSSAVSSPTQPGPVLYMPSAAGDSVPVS
`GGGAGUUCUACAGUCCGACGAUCGCAAAGGAUGAUGAGGCGGCAGCUGUUGCCCUUUCCUCCCUGAUUCAUGCUUUGGAUGAGUUAAACAUGGUCGCCAUCGUCCGAUAUGCUUAUGACAAAAGAUCUAAUCCUCAAGUUGGUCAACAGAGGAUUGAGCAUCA` has a bound/input enrichment of 0.203 ratio.
`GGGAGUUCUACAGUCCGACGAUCCUGUGUGUGCUGAAUAAAUGGCUUGUAAAGAAGUUUUUCCAAGCUGUAACCCAUGCUUCCCUUAGAGUUGCUGCAAAAUGUUCUUCCUGAUAUUGAUUUUAUUUGUUAACUGAAGGUCUCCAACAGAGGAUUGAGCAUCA` gave a bound/input enrichment of 0.533 ratio.
The bound/input enrichment of `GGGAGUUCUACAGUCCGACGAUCAAAGAACUACUGAGGCAAGGCAGCAAAUUUAGGAGAGACAUUUCAACAAUAUUGAUAGAGUUAGGAUUCCAAAUUAAAAAAAAAACUAAGACAUUAUACAUCAACAAAGCCAAUGUGUGGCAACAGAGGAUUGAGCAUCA` is reported as 16.2 ratio.
The bound/input enrichment of `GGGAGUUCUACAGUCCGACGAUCCUGUGACCACAAGAUCCUACCUGAGUGGCAGCUGAAGUUGACUCCCUCUCCUUGCCUGAACCCCCCCCCACUGCCCCUUGAGUCCACAGUGUCGGCUGAGAUGUUGCCAGCAGACAGUUCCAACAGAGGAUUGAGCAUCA` is reported as 0.669 ratio.
`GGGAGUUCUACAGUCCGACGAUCGAAAGAGAACUAAAGCAACUAAUAGAGAAGAGGAUUGGCAAAGAGAAUUUCAUAGAGAAACUAGGAUUUUAUUAGCAACAUGAGUUAUAUUCCAGAGCGUCUCAGAAACCCCAGCCAAACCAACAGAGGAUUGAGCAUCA` has a bound/input enrichment of 9.21 ratio.
`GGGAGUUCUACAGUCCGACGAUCGCUGAAAAUGAAGAAGAGGCAGCUGAUGUCUGGUACAACUUGGGACACAUAGCUGUGGGAAUCGGAGAUACAAACUUGGCCCACCAAUGCUUCAGGCUGGCCCUGGUCCACAACAACCACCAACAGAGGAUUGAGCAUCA` has a bound/input enrichment of 0.0963 ratio.
The bound/input enrichment of `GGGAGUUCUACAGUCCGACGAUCGAAUCCUACUCAGGCGGAUUUUGCAACACCAAGCUCACAGCAGCAGCAUCUUAGUCACAGUAGGGUAGUUUUGGGGCAAUAUUGCCAGGGUUUUAUUCAUGUGCAGGUUUGGAAAAUGUACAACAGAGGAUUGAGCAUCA` is reported as 3.91 ratio.
The bound/input enrichment of `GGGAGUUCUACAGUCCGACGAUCCUGGCACUCUAUCAGAUAUAUUAAUUUUUAAAUGUAGAUGUAAUUUUAAAAAUGAAUGGCUACUUUACGUGAUAGAUUAGGGUUUUACUAUAUAUGUGUACAUAUGUAUAUAUAUAUAUACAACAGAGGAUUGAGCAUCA` is reported as 6.38 ratio.

Block 3 — technique: RNA Bind-n-Seq; molecule type: RNA; medium: in vitro; tested at: 200 nM; notes: whole 134-nt RNA, ends assumed; with: 150 mM KCl; reference: input library; reading: higher = stronger binding
Target: Fragile X messenger ribonucleoprotein 1, C-terminal low-complexity region (Fmr1, Mus musculus, UniProt P35922)
For `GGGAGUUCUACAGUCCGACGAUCCCUGUGCUACACAUCGUAUGUACCGAAUCGGGGUUUUUGGGGAAAAAAAGGGGAAAGGGGAAAGUAUUAUGUUACGCCGUUCGGAUCUGCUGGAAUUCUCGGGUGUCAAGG`, the log2 enrichment was 0.266.
The log2 enrichment of `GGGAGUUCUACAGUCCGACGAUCUGUGCUACACAUCGUAUGUACCGAAUCGGGGAAAAAAAGGGGAAAAAAAGGGGUUUUUGGGGAAAGUAUUAUGUUACGCCGUUCGGAUCUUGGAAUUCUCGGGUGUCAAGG` is reported as 0.138.
For `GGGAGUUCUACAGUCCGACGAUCCAAGUCCUGUGCUACACAUCGUAUGUACCGAAUCGGGUUUGGGAGGGAAAAAGGGAAAGUAUUAUGUUACGCCGUUCGGAUCUGCACUUCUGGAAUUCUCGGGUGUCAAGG`, the log2 enrichment was 0.789.
For `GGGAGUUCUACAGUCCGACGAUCAGUCCUGUGCUACACAUCGUAUGUACCGAAUCGGCCCCCGGCCCCCGGGGCCCCCGGGAAAGUAUUAUGUUACGCCGUUCGGAUCUGCACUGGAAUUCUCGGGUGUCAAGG`, the log2 enrichment was -0.787.
The log2 enrichment of `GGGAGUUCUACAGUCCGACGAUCCACAGACAACACGCACCCACACAGACACAGAGGGAAGGGGUUGGGAUGGGGAAAAGGUGCACAGCAGGGCGGGGUAGGACCCCAGCCCCUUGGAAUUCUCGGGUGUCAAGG` is reported as 1.25.
The log2 enrichment of `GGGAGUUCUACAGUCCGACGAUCUCUGAGGUCACCAAGCCUCCUCCUUGCUUGGAGAACUCCUCGCCUCCCUCCAGGAUUCCGGAGCCUGAAUCCCCAGCGAAGCCAAACGUCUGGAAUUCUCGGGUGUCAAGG` is reported as -0.0472.
`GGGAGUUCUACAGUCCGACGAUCUGGGAGGUGGAUUUUGUUUAUUUUUUUAGCUCAUUUCCAGGGGUGGGAAUUUUUUUUUAUUAUGUGUCAUGAAUAAAGUUGUUUUUGAAAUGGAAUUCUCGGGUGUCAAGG` has a log2 enrichment of 0.157.
For `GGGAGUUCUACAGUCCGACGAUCUGGCCCUGGUGGCAUGCGGGGAGGAAGAGGUGGCCUCAUGGAUCGUGGUGGUCCCGGAGGAAUGUUCAGAGGUGGCCGUGGUGGAGACAGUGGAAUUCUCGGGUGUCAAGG`, the log2 enrichment was 0.331.
For `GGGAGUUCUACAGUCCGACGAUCGUCCUGUGCUACACAUCGUAUGUACCGAAUCGGGGAAAAAAAGGGGAAAGGGGUGGGGAAAGUAUUAUGUUACGCCGUUCGGAUCUGCACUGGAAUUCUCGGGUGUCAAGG`, the log2 enrichment was 0.396.

Block 4 — target: CCNA2, cyclin fold, Cln2 fusion (human); technique: yeast growth competition, sequencing; medium: yeast; notes: strong parent motif; reference: not given; reading: higher = stronger binding
Parent: PKMYT1 docking peptide (human); SFEPRNLLSLFED; partner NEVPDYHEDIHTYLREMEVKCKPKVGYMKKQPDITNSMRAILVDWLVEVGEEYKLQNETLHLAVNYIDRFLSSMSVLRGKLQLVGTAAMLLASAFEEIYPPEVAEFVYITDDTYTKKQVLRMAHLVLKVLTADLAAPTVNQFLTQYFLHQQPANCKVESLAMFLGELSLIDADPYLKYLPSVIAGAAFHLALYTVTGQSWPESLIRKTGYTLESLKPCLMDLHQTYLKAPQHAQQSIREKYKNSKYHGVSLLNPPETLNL
Under “normalised enrichment score”, `SFEPNNLLSLFED [R5N]` is recorded as -0.0787.
`SFEPRNLLSLLED [F11L]`: “normalised enrichment score” 0.734.
`SFDPRNLLSLFED [E3D]` — result for “normalised enrichment score”: 0.0863.
For `FFEPRNLLSLFED [S1F]`, “normalised enrichment score” read 3.72.
`SSEPRNLLSLFED [F2S]` — result for “normalised enrichment score”: -0.266.
Under “normalised enrichment score”, `SKEPRNLLSLFED [F2K]` is recorded as 0.193.
For `SFEPRNPLSLFED [L7P]`, “normalised enrichment score” read -1.58.
`SFQPRNLLSLFED [E3Q]`: “normalised enrichment score” 4.04.
Under “normalised enrichment score”, `SFESRNLLSLFED [P4S]` is recorded as 0.479.
`SFEPRNHLSLFED [L7H]` — result for “normalised enrichment score”: -0.399.
For `SFEPRNLLSLFEQ [D13Q]`, “normalised enrichment score” read 2.67.
Under “normalised enrichment score”, `SFEPRNLLSLFGD [E12G]` is recorded as 2.23.
Under “normalised enrichment score”, `SFEPRNLLRLFED [S9R]` is recorded as 2.63.
Under “normalised enrichment score”, `SFEPRNLLSTFED [L10T]` is recorded as 1.83.
Under “normalised enrichment score”, `SFEPRNLLDLFED [S9D]` is recorded as 1.74.
`SFEPSNLLSLFED [R5S]` — result for “normalised enrichment score”: 0.202.
`SFEPRNLLSLFEG [D13G]` — result for “normalised enrichment score”: 2.65.
`SFEPRNLLSLMED [F11M]`: “normalised enrichment score” 0.425.
For `SFEPTNLLSLFED [R5T]`, “normalised enrichment score” read 0.84.
`SWEPRNLLSLFED [F2W]`: “normalised enrichment score” 0.264.
For `SFEIRNLLSLFED [P4I]`, “normalised enrichment score” read -1.98.
For `SFEPRNLLSLHED [F11H]`, “normalised enrichment score” read -0.315.
`SFEPRNLLSRFED [L10R]` — result for “normalised enrichment score”: 2.47.
For `SFEPRNNLSLFED [L7N]`, “normalised enrichment score” read -0.533.
`SFEPRNELSLFED [L7E]`: “normalised enrichment score” -1.36.

Some of these lines once more (block 4):
`SFEPRNLLSLMED [F11M]`: “normalised enrichment score” 0.425.
For `SFEPTNLLSLFED [R5T]`, “normalised enrichment score” read 0.84.
`SWEPRNLLSLFED [F2W]`: “normalised enrichment score” 0.264.
